# Published values pooled from the literature.
# Protocols differ between the studies behind these lines. Numbers after ± are the reported error.
Structure (SMILES),target or system,assay,test system,conditions,scale,measurement,result
C=CC(=O)Nc1cccc(Cn2ncc3cnc(Nc4cnn(CCOC)c4)nc32)c1,DYRK1A human,"binding, KINOMEscan",,100 nM,lower = stronger binding,percent of control,100%
c1ccc(-c2n[nH]cc2-c2ccnc3ccccc23)nc1,HRK1 (Candida albicans),"kinase binding, MIB/MS competition",Candida albicans lysate,1 µM,reference: DMSO,log2 fold change,0.08
Cc1ncsc1-c1ccc(C(C)NC(=O)C2CC(O)CN2C(=O)C(NC(=O)CCCCCCCCCCN2CCCC(Nc3ncc(Cl)c(Nc4ccccc4S(=O)(=O)C(C)C)n3)C2)C(C)(C)C)cc1 (stereo not drawn),22Rv1,"RNA-seq, item: NIPAL1 mRNA",,concentration not given,reference: DMSO,log2 fold change,-1.7
CO[C@@H]1[C@@H](OC(N)=O)[C@@H](O)[C@H](Oc2ccc3c(O)c(NC(=O)c4ccc(O)c(CC=C(C)C)c4)c(=O)oc3c2C)OC1(C)C,HCT-116 BRCA2 wild-type,,,"300 µM, replicate B",reference: untreated,colony survival,0.455%
C[n+]1ccc(/C=N/NC(=O)N/N=C/c2cc[n+](C)c3ccccc23)c2ccccc21,22CTA telomeric G4-DNA antiparallel,FRET melting,,"1 µM, K10 buffer, DNA 0.2 µM, together with: ds26 10 µM",,ΔTm,4.3 ± 2.3 °C
Nc1ncc(-c2cc(-c3cnn(CC(F)(F)F)c3)ncc2F)nc1C(=O)NC1CNCC(F)C1 (stereo not drawn),CSF1R,KINOMEscan,,1 µM,reference: DMSO control,remaining binding,97%
O=C(N/N=C/c1cc[n+](CC2CC2)c2ccccc12)c1ccc2ccc3ccc(C(=O)N/N=C/c4cc[n+](CC5CC5)c5ccccc45)nc3c2n1,22CTA telomeric G4-DNA antiparallel,FRET melting,,"1 µM, K10 buffer, DNA 0.2 µM, together with: ds26 10 µM",,ΔTm,16.2 ± 1.7 °C
C=C(NC(=O)c1csc(-c2nc3c(cc2O)-c2nc(cs2)C(=O)NC(C(C)O)C(=O)NC(=C(C)OC)c2nc(cs2)C(=O)NC2c4nc(cs4)C(=O)NC(COC(=O)c4c5c6c(cccc6n4O)COC(=O)C(OC4CC(C)(O)C(N(C)C)C(C)O4)C2OC5)c2nc-3cs2)n1)C(N)=O (stereo not drawn),Streptococcus pneumoniae,,"-25, immunocompromised mice, lung","32 mg/kg/day once daily, 24 h post-dose",,lung bacterial load,3.98 log10 CFU/lung
C[n+]1cc(NC(=O)c2ccc3ccc4ccc(C(=O)Nc5cc6ccccc6[n+](C)c5)nc4c3n2)cc2ccccc21,G-quadruplex DNA myc22 parallel,UV melting,,"6 µM, K10 buffer, together with: DNA 3 µM",,delta Tm,1.2 °C
COC1CN([C@H]2CC[C@H]([C@@]3(C)Oc4c(Cl)cc(C(=O)NCc5c(SC)cc(C)[nH]c5=O)c(C)c4O3)CC2)C1,,"RNA-seq, item: KIFC3 mouse homolog","mouse, HT-1376 xenograft, whole blood",dose not given,reference: vehicle,log2 fold change,0.459
C[n+]1ccc(/C=N/NC(=O)c2ccc3ccc(C(=O)N/N=C/c4cc[n+](C)cc4)nc3n2)cc1,22CTA telomeric G4-DNA antiparallel,FRET melting,,"1 µM, K10 buffer, DNA 0.2 µM",,ΔTm,6.2 ± 0.3 °C
C=CC(=O)N1[C@H](c2ccc3c(c2)OCO3)c2[nH]c3ccccc3c2C[C@@H]1C(=O)N1CCN(C)CC1,human cyclin E1 N112C-3xFLAG:CDK2,"co-IP with TMT proteomics, item: HNRNPA1",,"concentration not given, P09651",reference: wild type DMSO,relative co-enrichment,202%

# Repeated from above:
Structure (SMILES),target or system,assay,test system,conditions,scale,measurement,result
Nc1ncc(-c2cc(-c3cnn(CC(F)(F)F)c3)ncc2F)nc1C(=O)NC1CNCC(F)C1 (stereo not drawn),CSF1R,KINOMEscan,,1 µM,reference: DMSO control,remaining binding,97%
CO[C@@H]1[C@@H](OC(N)=O)[C@@H](O)[C@H](Oc2ccc3c(O)c(NC(=O)c4ccc(O)c(CC=C(C)C)c4)c(=O)oc3c2C)OC1(C)C,HCT-116 BRCA2 wild-type,,,"300 µM, replicate B",reference: untreated,colony survival,0.455%
